Experimental data from different studies.
Parts stem from different laboratories: compare values within a part only.
Chain of UniProt P08922 (whole entry, looked up): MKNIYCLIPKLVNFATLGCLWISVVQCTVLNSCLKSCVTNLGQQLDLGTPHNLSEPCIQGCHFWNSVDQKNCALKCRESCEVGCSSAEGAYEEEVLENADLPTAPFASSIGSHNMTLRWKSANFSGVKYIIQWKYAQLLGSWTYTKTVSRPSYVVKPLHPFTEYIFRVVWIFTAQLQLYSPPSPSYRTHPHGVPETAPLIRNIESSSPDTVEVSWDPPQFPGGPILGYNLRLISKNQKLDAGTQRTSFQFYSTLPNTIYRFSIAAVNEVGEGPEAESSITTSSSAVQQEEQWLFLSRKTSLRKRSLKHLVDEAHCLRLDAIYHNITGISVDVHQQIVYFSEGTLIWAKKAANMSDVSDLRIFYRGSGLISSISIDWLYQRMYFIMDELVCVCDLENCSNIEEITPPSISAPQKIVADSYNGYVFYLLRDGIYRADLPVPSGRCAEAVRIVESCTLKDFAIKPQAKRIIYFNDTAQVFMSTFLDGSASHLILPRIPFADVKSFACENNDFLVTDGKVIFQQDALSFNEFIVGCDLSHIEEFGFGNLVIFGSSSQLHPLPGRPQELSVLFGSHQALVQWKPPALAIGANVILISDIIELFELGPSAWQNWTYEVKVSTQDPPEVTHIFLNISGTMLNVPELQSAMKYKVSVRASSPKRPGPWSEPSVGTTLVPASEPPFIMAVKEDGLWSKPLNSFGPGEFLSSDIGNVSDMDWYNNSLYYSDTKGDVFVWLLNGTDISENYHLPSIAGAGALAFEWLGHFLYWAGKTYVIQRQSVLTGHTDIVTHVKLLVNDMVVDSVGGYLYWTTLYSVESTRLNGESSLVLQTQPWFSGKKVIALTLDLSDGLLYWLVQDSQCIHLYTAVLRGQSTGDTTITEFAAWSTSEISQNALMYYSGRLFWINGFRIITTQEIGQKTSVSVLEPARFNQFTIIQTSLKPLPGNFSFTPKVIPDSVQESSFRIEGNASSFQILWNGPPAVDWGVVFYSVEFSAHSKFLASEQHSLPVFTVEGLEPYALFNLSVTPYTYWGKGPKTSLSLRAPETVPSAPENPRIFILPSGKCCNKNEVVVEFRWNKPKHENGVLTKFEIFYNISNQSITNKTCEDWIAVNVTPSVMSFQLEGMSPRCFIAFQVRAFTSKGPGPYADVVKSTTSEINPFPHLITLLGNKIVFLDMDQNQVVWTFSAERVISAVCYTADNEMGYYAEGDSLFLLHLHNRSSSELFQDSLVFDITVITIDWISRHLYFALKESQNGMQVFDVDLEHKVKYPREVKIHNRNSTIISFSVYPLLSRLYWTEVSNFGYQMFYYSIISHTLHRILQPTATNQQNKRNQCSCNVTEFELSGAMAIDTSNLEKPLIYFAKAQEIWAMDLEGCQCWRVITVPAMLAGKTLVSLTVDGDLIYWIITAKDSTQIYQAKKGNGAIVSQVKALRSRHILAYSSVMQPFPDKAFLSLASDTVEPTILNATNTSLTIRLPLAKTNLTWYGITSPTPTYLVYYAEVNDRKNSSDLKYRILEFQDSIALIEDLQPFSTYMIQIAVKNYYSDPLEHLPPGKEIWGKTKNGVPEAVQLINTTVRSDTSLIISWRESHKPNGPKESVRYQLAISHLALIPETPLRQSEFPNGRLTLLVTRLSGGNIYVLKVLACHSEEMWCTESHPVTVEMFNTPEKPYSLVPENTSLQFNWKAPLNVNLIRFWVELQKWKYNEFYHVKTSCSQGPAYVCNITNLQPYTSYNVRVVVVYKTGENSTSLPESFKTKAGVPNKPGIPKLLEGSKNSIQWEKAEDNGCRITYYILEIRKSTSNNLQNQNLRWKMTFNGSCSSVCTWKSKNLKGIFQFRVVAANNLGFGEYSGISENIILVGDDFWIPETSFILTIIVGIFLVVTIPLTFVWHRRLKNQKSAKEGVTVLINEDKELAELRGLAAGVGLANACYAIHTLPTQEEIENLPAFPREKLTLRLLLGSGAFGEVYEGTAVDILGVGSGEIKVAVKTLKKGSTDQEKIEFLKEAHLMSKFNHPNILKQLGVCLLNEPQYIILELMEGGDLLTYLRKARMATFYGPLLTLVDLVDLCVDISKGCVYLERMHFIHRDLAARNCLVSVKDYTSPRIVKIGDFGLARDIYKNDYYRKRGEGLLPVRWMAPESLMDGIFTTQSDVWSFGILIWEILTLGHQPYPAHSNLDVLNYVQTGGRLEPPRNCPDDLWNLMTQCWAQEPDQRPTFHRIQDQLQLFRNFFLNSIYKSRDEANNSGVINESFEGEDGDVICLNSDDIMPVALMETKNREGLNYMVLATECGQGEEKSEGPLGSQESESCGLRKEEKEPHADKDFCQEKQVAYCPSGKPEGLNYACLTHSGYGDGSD

Set 1 — technique: RNA Bind-n-Seq; form: RNA; matrix: in vitro; tested at: 15 pmol; setting: 4-mer, random 30-nt RNA, single round; added: DMSO vehicle, 2 mM AMP-PNP; reference: input library; direction: higher = stronger binding
Target: Eukaryotic initiation factor 4A-I (EIF4A1, Homo sapiens, UniProt P60842, residues 1-406, full length assumed)
Chain of UniProt P60842 (whole entry, looked up): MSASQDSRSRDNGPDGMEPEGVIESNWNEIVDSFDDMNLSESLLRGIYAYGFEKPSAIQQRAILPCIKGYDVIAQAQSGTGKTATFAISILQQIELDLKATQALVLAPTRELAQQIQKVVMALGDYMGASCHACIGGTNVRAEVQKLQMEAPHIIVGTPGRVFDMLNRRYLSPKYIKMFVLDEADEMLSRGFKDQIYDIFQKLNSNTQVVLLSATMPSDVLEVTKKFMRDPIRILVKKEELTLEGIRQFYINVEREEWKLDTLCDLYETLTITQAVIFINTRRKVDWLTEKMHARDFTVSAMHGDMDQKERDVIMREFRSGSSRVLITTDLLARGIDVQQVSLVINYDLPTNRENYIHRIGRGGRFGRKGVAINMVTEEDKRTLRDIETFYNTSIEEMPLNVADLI
| Oligonucleotide | 4-mer enrichment |
| --- | --- |
| UAAG | 0.788 fold |
| CCGA | 1.07 fold |
| UAGG | 0.706 fold |
| AGCA | 1.41 fold |
| ACAU | 0.958 fold |
| UCCU | 1.11 fold |
| AGAC | 0.909 fold |
| CUUU | 0.829 fold |

Set 2 — technique: RNA Bind-n-Seq; form: RNA; matrix: in vitro; tested at: 200 nM; setting: whole 134-nt RNA, ends assumed; added: 150 mM LiCl; reference: input library; direction: higher = stronger binding; library: 7-deaza-guanosine replaces G
Target: Fragile X messenger ribonucleoprotein 1, C-terminal low-complexity region (Fmr1, Mus musculus, UniProt P35922)
Shared flanks, not repeated: GGGAGUUCUACAGUCCGACGAUC … UGGAAUUCUCGGGUGUCAAGG
| Oligonucleotide | log2 enrichment |
| --- | --- |
| UCAAGUCCUGUGCUACACAUCGUAUGUACCGAAUCGGUUUGGAGGUUUUUUUGGAAAGUAUUAUGUUACGCCGUUCGGAUCUGCACUUCC | -0.55 |
| CUCAAGUCCUGUGCUACACAUCGUAUGUACCGAAUCGGGAGGGUGGGUUUGGGAAAGUAUUAUGUUACGCCGUUCGGAUCUGCACUUCCA | -0.777 |
| UCCUGUGCUACACAUCGUAUGUACCGAAUCGGGGUUUUUGGGGUUUUUGGGGUUUUUGGGAAAGUAUUAUGUUACGCCGUUCGGAUCUGC | 0.46 |
| UCAAGUCCUGUGCUACACAUCGUAUGUACCGAAUCGGAAAAAGGAAAGGUUUGGAAAGUAUUAUGUUACGCCGUUCGGAUCUGCACUUCC | -1.71 |
| CAAGUCCUGUGCUACACAUCGUAUGUACCGAAUCGGGAAAGGAAAGGGGAAAGGGAAAGUAUUAUGUUACGCCGUUCGGAUCUGCACUUC | -0.245 |
| GUCCUGUGCUACACAUCGUAUGUACCGAAUCGGGGUUUGGGGUGGGGAAAAAAAGGGGAAAGUAUUAUGUUACGCCGUUCGGAUCUGCAC | 0.0631 |
| CCUGUGCUACACAUCGUAUGUACCGAAUCGGGGAAAAAAAGGGGAAAAAGGGGAAAGGGGAAAGUAUUAUGUUACGCCGUUCGGAUCUGC | 0.991 |
| CUCAAGUCCUGUGCUACACAUCGUAUGUACCGAAUCGGGGAAGGAAGGAAGGGAAAGUAUUAUGUUACGCCGUUCGGAUCUGCACUUCCA | -1.02 |

Mixed results — SRSF1: SRSF1 (Homo sapiens, UniProt Q07955)
| Substance | target or system | assay | system | setting | how to read | quantity | value |
| --- | --- | --- | --- | --- | --- | --- | --- |
| SRSF2 (Homo sapiens, UniProt Q01130) | SRSF1 | cross-linking MS | cell fractions | added: DSSO | – | cross-linked residues | T51 to K30 |
| CC(C)c1nn(-c2c(Cl)cccc2Cl)c2nc(Cc3ccc(OCCO)cc3)[nH]c(=O)c12 | ROS1 (Homo sapiens, UniProt P08922) | enzyme activity, inhibitor | – | 0.5 µM | reference: control | remaining activity | 105% |
| RBMX (Homo sapiens, UniProt P38159) | HNRNPK (Homo sapiens, UniProt P61978) | cross-linking MS | – | hits only | – | interaction screen | cross-linked |
| ATP5PD (Homo sapiens, UniProt O75947) | ATP5F1B (Homo sapiens, UniProt P06576) | cross-linking MS | – | hits only | – | interaction screen | cross-linked |
| RBM25 (Homo sapiens, UniProt P49756) | SRSF1 | cross-linking MS | cell fractions | added: DSSO | – | cross-linked residues | K462 to K179 |

For quick reference, copied from above (set 1):
| Oligonucleotide | 4-mer enrichment |
| --- | --- |
| UAGG | 0.706 fold |
| AGCA | 1.41 fold |
| ACAU | 0.958 fold |
